Results pooled from the literature.
Lines come from different studies, so protocols differ. “And” joins repeats or separate records; there may be more than shown. ± gives the spread as reported.
rep papain-like protease: Replicase polyprotein 1ab, papain-like protease (rep, Porcine epidemic diarrhea virus, UniProt P0C6Y4)
rep main protease: Replicase polyprotein 1ab, main protease (rep, Porcine epidemic diarrhea virus, UniProt P0C6Y4)
UniProt Q93009, sequence (whole entry, unmodified, looked up): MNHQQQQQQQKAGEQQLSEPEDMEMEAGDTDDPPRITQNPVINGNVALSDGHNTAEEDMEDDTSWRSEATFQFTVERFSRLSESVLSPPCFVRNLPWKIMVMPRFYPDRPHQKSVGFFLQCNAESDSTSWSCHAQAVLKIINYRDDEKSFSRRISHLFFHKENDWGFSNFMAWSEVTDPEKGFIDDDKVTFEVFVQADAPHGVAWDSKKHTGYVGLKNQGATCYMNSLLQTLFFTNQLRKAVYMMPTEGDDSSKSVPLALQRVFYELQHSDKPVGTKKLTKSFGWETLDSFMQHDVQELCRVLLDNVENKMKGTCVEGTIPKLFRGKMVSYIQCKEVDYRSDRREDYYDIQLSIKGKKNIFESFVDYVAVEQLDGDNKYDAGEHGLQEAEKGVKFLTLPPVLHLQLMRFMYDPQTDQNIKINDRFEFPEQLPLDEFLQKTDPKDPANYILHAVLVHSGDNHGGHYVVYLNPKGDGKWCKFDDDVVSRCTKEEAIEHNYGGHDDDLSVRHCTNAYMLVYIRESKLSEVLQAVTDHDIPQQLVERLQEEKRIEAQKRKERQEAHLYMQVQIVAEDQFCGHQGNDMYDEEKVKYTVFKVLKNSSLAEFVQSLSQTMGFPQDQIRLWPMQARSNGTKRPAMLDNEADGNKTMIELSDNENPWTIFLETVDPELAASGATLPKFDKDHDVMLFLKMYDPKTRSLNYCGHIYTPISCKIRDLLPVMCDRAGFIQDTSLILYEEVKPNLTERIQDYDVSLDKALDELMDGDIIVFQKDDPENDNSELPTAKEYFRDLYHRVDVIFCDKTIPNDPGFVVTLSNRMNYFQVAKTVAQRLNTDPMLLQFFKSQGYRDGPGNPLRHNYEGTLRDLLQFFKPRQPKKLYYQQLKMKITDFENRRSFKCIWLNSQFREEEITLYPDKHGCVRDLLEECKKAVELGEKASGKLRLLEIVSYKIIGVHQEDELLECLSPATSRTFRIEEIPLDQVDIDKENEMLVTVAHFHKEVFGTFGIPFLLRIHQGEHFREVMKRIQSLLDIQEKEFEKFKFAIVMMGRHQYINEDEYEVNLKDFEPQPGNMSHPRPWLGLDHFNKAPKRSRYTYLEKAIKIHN
UniProt P51531, sequence (whole entry, looked up): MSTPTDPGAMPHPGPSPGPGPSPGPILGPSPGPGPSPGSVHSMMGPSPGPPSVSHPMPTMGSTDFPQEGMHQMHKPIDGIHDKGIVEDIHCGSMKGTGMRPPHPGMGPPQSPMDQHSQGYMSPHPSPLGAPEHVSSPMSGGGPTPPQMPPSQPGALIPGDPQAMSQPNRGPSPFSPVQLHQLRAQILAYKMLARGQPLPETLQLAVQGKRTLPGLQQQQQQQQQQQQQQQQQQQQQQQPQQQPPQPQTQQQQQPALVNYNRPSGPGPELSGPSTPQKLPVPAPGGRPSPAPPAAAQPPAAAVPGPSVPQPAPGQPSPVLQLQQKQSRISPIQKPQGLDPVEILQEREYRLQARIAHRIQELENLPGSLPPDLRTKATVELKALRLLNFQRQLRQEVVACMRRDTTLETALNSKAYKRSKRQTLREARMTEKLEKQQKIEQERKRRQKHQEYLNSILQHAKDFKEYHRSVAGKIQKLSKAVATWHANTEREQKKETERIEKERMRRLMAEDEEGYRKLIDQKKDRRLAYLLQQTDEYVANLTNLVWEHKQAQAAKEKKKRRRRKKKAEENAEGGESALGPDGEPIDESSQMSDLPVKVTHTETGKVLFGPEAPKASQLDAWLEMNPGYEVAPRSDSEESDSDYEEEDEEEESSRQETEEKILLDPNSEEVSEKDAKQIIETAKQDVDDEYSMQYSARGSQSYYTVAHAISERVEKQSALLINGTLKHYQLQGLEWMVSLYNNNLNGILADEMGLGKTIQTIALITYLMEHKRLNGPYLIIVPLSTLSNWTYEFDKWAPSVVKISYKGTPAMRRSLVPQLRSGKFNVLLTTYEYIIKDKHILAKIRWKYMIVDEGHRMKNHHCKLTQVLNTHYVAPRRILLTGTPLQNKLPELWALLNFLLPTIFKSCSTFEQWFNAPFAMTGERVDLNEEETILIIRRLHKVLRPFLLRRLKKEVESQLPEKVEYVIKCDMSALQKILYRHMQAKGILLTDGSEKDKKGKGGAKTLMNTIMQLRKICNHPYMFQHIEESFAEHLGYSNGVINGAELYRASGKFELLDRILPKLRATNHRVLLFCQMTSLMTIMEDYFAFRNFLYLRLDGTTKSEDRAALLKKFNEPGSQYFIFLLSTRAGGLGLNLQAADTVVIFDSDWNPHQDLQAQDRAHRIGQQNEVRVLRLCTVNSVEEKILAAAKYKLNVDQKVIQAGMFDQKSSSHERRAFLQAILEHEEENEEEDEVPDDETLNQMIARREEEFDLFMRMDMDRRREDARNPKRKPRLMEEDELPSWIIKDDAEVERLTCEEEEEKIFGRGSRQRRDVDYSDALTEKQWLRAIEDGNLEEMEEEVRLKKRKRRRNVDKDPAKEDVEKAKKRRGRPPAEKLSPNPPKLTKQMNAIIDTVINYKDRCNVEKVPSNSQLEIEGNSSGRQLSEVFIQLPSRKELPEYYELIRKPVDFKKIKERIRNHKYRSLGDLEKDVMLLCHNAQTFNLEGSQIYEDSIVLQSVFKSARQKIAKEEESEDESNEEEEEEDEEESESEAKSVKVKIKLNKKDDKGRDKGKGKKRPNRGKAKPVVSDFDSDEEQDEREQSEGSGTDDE
UniProt Q8N884, sequence (whole entry, looked up): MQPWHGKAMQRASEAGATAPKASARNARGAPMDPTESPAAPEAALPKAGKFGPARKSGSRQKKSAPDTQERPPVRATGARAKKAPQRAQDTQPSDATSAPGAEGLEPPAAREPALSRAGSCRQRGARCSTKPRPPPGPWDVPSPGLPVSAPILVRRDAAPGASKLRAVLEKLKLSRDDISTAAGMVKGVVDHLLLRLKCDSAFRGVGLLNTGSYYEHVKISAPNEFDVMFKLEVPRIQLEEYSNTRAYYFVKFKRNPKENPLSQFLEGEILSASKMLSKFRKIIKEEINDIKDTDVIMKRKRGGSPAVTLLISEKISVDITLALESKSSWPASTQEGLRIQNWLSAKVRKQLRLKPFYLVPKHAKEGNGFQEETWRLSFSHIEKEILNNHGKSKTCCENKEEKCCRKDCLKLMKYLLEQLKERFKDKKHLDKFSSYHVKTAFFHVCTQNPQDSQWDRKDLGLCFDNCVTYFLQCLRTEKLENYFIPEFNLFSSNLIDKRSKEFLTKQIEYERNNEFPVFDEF
UniProt Q6PHR2, sequence (whole entry, looked up): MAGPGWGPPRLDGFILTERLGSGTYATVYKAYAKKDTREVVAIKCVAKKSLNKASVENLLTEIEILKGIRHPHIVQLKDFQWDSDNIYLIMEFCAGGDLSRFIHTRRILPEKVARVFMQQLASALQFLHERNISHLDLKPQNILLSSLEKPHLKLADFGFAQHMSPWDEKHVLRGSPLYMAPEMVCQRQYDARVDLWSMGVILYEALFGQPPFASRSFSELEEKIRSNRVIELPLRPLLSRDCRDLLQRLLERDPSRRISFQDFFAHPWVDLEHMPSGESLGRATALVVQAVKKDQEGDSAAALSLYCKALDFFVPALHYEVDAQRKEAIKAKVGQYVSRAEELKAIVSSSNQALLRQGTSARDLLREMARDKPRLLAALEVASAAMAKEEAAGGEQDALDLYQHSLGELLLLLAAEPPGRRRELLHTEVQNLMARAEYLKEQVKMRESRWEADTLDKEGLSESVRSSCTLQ
UniProt O75716, sequence (whole entry, looked up): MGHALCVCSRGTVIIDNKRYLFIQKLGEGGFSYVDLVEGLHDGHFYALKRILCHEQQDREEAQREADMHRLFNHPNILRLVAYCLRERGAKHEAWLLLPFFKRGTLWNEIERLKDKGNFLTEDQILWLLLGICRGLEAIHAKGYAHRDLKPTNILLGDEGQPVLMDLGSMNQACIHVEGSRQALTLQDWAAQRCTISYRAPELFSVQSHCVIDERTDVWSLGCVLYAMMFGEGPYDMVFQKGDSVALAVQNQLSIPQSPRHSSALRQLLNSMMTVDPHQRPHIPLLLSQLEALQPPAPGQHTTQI
UniProt Q13188, sequence (whole entry, looked up): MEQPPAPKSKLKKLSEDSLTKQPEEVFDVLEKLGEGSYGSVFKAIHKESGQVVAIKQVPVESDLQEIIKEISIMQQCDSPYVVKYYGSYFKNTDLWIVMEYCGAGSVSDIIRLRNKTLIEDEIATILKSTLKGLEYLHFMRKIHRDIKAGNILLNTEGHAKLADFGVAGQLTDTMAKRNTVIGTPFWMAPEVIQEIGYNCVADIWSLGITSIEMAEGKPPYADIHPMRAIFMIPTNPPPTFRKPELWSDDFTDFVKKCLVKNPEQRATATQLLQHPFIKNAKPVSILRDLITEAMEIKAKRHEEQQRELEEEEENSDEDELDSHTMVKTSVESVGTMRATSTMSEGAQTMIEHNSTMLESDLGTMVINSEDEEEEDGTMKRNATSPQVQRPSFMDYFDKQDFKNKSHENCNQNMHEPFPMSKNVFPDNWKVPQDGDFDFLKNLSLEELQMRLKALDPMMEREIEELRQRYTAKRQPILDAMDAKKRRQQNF
UniProt P18089, sequence (whole entry, looked up): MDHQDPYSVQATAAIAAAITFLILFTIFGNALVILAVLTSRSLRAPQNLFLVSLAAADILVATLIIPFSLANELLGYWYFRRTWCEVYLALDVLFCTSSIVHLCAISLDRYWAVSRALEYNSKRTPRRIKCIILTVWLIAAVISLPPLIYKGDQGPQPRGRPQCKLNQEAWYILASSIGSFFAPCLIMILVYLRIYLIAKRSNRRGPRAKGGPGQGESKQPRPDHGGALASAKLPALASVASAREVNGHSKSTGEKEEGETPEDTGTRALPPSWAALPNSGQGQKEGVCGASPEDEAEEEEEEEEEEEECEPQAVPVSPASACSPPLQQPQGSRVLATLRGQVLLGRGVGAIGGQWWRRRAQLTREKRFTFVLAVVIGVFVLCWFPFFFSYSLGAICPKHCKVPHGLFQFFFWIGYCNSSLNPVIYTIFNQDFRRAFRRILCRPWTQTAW

O=C(NO)c1ccc(CN2CCCCc3ccccc32)c(F)c1
inhibition (ADRA2B (Homo sapiens, UniProt P18089); radioligand binding, PDSP radioligand binding; 10 µM): 33.2%

COc1cc(CNC(=O)c2cccs2)cc(Br)c1OC
inhibition (rep papain-like protease; enzyme activity, inhibitor, FRET; 10 µM): < 0%

CN1CCN(c2cc(-c3ccncc3)c(-c3ccc4ccccc4c3)nn2)CC1
inhibition (VIPR2 (Homo sapiens, UniProt P41587); antagonist, FLIPR; 10 µM): 5.8%

OO
inhibition (Histone acetyltransferase p300, BHC core (EP300, Homo sapiens, UniProt Q09472); enzyme activity; 1 mM, with: p300 BHC, without DTT): 54 ± 10%

COc1cc(-c2cc(C(C)=O)n3ccccc23)c(OC)cc1Cn1ccnc1
inhibition (SWI/SNF-related matrix-associated actin-dependent regulator of chromatin subfamily A member 2, isoform B (SMARCA2, Homo sapiens, UniProt P51531); 1 µM): -0.89%

O=C(C[C@@H](C(F)F)n1ccc(F)n1)N1CCC(O)(Cn2cnc3c(cnn3-c3ccc(F)cc3)c2=O)CC1
inhibition (USP7 (Homo sapiens, UniProt Q93009, V517F); enzyme activity, inhibitor; 0.0005 µM): 12.7% and 10.9%

COc1c(C#N)ccnc1N1C2CCC1CN(C(=O)c1cccnc1-n1cccn1)C2
inhibition (voltage-gated potassium channel; binding; 10 µM): -10.9%

COc1cc(CNC(=O)c2cccc(C#N)c2)cc(Br)c1OC
inhibition (rep papain-like protease; enzyme activity, FRET; concentration not given): inactive

CNc1cc(Oc2cc(C(=O)Nc3cc(N4CCN(C)CC4)cc(C(F)(F)F)c3)ccc2C)ncn1
inhibition (STK3 (Homo sapiens, UniProt Q13188); kinase activity; 1 µM): -12.9%

COc1ccc(F)cc1C(=O)NCc1ccc(-c2nn([C@@H](C)C(F)(F)F)c(N)c2C(N)=O)cc1
inhibition (ULK3 (Homo sapiens, UniProt Q6PHR2); probe binding, competitive chemoproteomics; human PBMCs; 10 µM): -1%

CC[C@@H]1[C@H](F)C(=O)N[C@@H]1COc1nccc2cc(C(N)=O)c(OC)cc12
inhibition (NEK9 (Homo sapiens, UniProt Q8TD19); ATP-site probe binding, ActivX profiling; THP-1 cell lysate; 0.01 mM, Lys2 site): 1.1%

COc1cc(-c2cc(C(C)=O)n3ccccc23)cc(OC)c1Cn1ccnc1
inhibition (SMARCA2 (Homo sapiens, UniProt P51531); 1 µM): -8.8%

CSc1ccccc1C(=O)NCc1cc(O)c(O)c(Br)c1
inhibition (rep main protease; enzyme activity, FRET; concentration not given): inactive

COc1ccc(C(=O)Nc2ccc(N3C4CCC3CN(c3ccccn3)C4)cc2)cc1
inhibition (Alpha-synuclein, fibrils (SNCA, Homo sapiens, UniProt P37840); radioligand binding; 1 µM, 50 nM protein, with: [3H]BF2846 4 nM): inhibited

Cc1cc2c(cc1N1C(=O)c3cccc4c(CCCO)ccc(c34)C1=O)n(C)c(=O)n2C (racemic)
inhibition (Bromodomain and WD repeat-containing protein 1, bromodomain 2 (BRWD1, Homo sapiens, UniProt Q9NSI6); binding, BROMOscan binding; 1000 nM): 50%

Cc1cc(-c2ccnc3[nH]cc(F)c23)cc(F)c1[C@@]1(O)[C@H](C)CN(C2CCS(=O)(=O)CC2)C[C@@H]1C
inhibition (STK16 (Homo sapiens, UniProt O75716); ATP probe binding, KiNativ, refers to: Lys2 site; HEK293T cell lysate; 10 µM): 72.6%

COc1ccc(S(=O)(=O)ON=C2C=C(C)C(=O)C(C)=C2)cc1
inhibition (HDAC6 (Homo sapiens, UniProt Q9UBN7); enzyme activity, inhibitor; concentration not given): no inhibition

CC/C(=N\NC(=O)NCc1cccc(O)c1)c1ccc(O)c(C)c1O
inhibition (BRAF (Homo sapiens, UniProt P15056); kinase activity; 0.1 µM): 5%

O=C(NCc1ccc(O)c(O)c1)c1ccccc1
inhibition (rep main protease; enzyme activity, inhibitor, FRET; 10 µM): < 0%

Cc1nn(-c2nc3c(F)cc(F)cc3s2)c(O)c1C(c1ccccc1C(=O)O)c1c(C)nn(-c2nc3c(F)cc(F)cc3s2)c1O
inhibition (CGAS (Homo sapiens, UniProt Q8N884); enzyme activity, inhibitor, pyrophosphatase-coupled; 200 µM, 1.5 h, with: HT-DNA): 95.7%

COc1cc(C(=O)NS(=O)(=O)c2ccccc2C)ccc1Cc1cn(C)c2ccc(NC(=O)OC3CCCC3)cc12
inhibition (Volume-regulated anion channel subunit LRRC8C, part LRRC8A IL1 chimera (LRRC8C, Homo sapiens, UniProt Q8TDW0, E6A); ion current, inhibitor, whole-cell patch clamp; HCT LRRC8-/- cells; 0.1 µM, +100 mV): 9.14% and 16.3% and 22.2% and 29.7%

C#Cc1cc(-c2cc(Nc3nc(N[C@@H](C)c4ccc(F)cn4)ncc3Cl)n[nH]2)ccc1C=O
inhibition (ROS1 (Homo sapiens, UniProt P08922); enzyme activity, inhibitor; 0.2 µM): 1.58%

Cc1cnc2nc(SCC(=O)Nc3nccs3)n(CCc3ccccc3)c(=O)c2n1
inhibition (Phosphatidylinositol 4-phosphate 3-kinase C2 domain-containing subunit alpha (Pik3c2a, Mus musculus, UniProt Q61194); enzyme activity, inhibitor; concentration not given, with: ATP 10 µM): inactive

For quick reference, copied from above:
CSc1ccccc1C(=O)NCc1cc(O)c(O)c(Br)c1
inhibition (rep main protease; enzyme activity, FRET; concentration not given): inactive
